Results gathered from unrelated publications.
± marks the error that the study gave.

CCN(CC)CCNC(=O)c1cc(-c2ccc(Br)s2)nc2ccccc12
maximum response (SARS-CoV-2; cytopathic effect; USA_WA1/2020; round 1, 5-point): 72%

COc1ccc(COc2ccccc2C(=O)Nc2ccccc2OC)cc1
IC50 (HIV-1; viral replication, item: RT activity; H9 expressing A3G, LAI, X4-tropic wild type; day 7): > 100000 nM

C#C[C@]1(CO)O[C@@H](n2ccc(N)nc2=O)C[C@@H]1O
IC50 (HIV-1 K65R; MTT; MT4): 10.2 ± 4 nM

Cn1cnc(Cn2c(=O)[nH]/c(=N\c3cc4cn(C)nc4cc3Cl)n(Cc3cc(F)c(F)cc3F)c2=O)n1
renal clearance (human, mild renal impairment, plasma; oral, 375 mg single dose): 0.545 mL/min

C[C@]1(CO)O[C@@H](n2cnc3c(N)nc(N)nc32)C[C@@H]1O
IC50 (HIV-1 K65R; MTT; MT4): 97.1 ± 75.6 nM

N#CC(C#N)=NNc1ccc(OC(F)(F)F)cc1
IC50 (Plasmodium yoelii; parasite growth; 17XL): 8600 nM

Cc1ccc(-c2cccc(CN3CCCC(NC(=O)c4c(C)noc4C)C3)c2)cc1Cl (stereo not drawn)
efficacy (SARS-CoV-2; cytopathic effect; USA_WA1/2020; round 1, 5-point): 101%

CC[C@H](C)[C@H](NC(=O)[C@H](CC(C)C)NC(=O)[C@H](Cc1c[nH]c2ccccc12)NC(=O)[C@H](CCC(N)=O)NC(=O)[C@@H](NC(=O)[C@H](Cc1ccccc1)NC(=O)[C@H](C)NC(=O)[C@H](CCCCNC(=O)COCCOCCNC(=O)COCCOCCNC(=O)CC[C@H](NC(=O)CCCCCCCCCCCCCCCCCCC(=O)O)C(=O)O)NC(=O)[C@H](CCC(N)=O)NC(=O)[C@H](C)NC(=O)[C@@H](NC(=O)[C@H](CCCCN)NC(=O)[C@H](CC(=O)O)NC(=O)[C@H](CC(C)C)NC(=O)C(C)(C)NC(=O)[C@@H](NC(=O)[C@H](CO)NC(=O)[C@H](Cc1ccc(O)cc1)NC(=O)[C@H](CC(=O)O)NC(=O)[C@H](CO)NC(=O)[C@@H](NC(=O)[C@H](Cc1ccccc1)NC(=O)[C@@H](NC(=O)CNC(=O)[C@H](CCC(=O)O)NC(=O)C(C)(C)NC(=O)[C@@H](N)Cc1ccc(O)cc1)[C@@H](C)O)[C@@H](C)O)[C@@H](C)CC)[C@@H](C)CC)C(C)C)C(=O)N[C@@H](C)C(=O)NCC(=O)NCC(=O)N1CCC[C@H]1C(=O)N[C@@H](CO)C(=O)N[C@@H](CO)C(=O)NCC(=O)N[C@@H](C)C(=O)N1CCC[C@H]1C(=O)N1CCC[C@H]1C(=O)N1CCC[C@H]1C(=O)N[C@@H](CO)C(N)=O
systolic blood pressure change (healthy subjects; 1.5 mg, day 29, multiple ascending dose, LS mean; reference: baseline): 2.32 mmHg

NCC(NC(=O)c1ccc(-c2ccc3c(c2)OCO3)[nH]1)c1ncc(CO)s1 (stereo not drawn)
IC50 (human immunodeficiency virus 1; viral replication; PBMC; 168 h): 1900 ± 200 nM

CNC(=O)[C@@H](NC(=O)[C@H](CC(C)C)[C@H](O)C(=O)NO)C(C)(C)C
remaining fibrinogen Bβ chain (human fibrinogen; SDS-PAGE; Daboia russelii; concentration not given, unit not given, with: GA venom; reference: untreated fibrinogen): 0.805

COc1ccccc1NC(=O)c1ccccc1Sc1ccc([N+](=O)[O-])cc1
IC50 (HIV-1; viral replication, item: RT activity; H9 expressing A3G, LAI, X4-tropic wild type; day 7): 6000 nM

CNCC(NC(=O)c1ccc(-c2ccc3c(c2)OCO3)[nH]1)c1nc(CO)cs1 (stereo not drawn)
IC50 (human immunodeficiency virus 1; viral replication; PBMC; 168 h): 2800 ± 400 nM

C=C(C)[C@@H]1CC[C@]2(C(=O)NCCCCCCCCNC(=O)[C@H](CCC#N)NC(=O)OC(C)(C)C)CC[C@]3(C)[C@H](CC[C@@H]4[C@@]5(C)CC[C@H](OC(=O)CC(C)(C)C(=O)O)C(C)(C)[C@@H]5CC[C@]43C)[C@@H]12
IC50 (Human immunodeficiency virus 1; viral replication, ELISA; MT4, NL43; 96 h): ≤ 50 nM

COc1ccccc1C(=O)Nc1ccccc1Sc1ccc([N+](=O)[O-])cc1
IC50 (HIV-1; viral replication, item: RT activity; H9 expressing A3G, LAI, X4-tropic wild type; day 7): 5500 nM

Nc1ncnc2c([C@@H]3N[C@H](CO)[C@@H](O)[C@H]3O)c[nH]c12
inhibition (Yellow fever virus; viral replication; Vero 76, 17D; 94.7 µM): 94.6%

O=C(Nc1ccc2c(c1)OCO2)c1ccccc1Sc1ccc([N+](=O)[O-])cc1Cl
IC50 (HIV-1; viral replication, item: RT activity; H9 expressing A3G, LAI, X4-tropic wild type; day 7): 25000 nM

C=C[C@]1(CO)O[C@@H](n2cnc3c(N)nc(N)nc32)C[C@@H]1O
IC50 (HIV-1 M184V; MTT; MT4): > 1000 nM

CC1(C)CC(NC(=O)C(=O)Nc2ccc(Cl)cc2)CC(C)(C)N1
IC50 (HIV-1; viral entry; TZM-bl, panel of 56 Env pseudoviruses): 1900 to 27800 nM

Excerpt of the above:
CCN(CC)CCNC(=O)c1cc(-c2ccc(Br)s2)nc2ccccc12
maximum response (SARS-CoV-2; cytopathic effect; USA_WA1/2020; round 1, 5-point): 72%
